Published values of several laboratories.
Protocols differ between the studies behind these lines. Several values in a cell are separate wells, animals, samples, runs or records. ± marks the error that the study gave.

CCC(=O)N(CCC(c1ccc2c(c1)OCO2)c1ccccc1OC)Cc1ccccc1 (stereo not drawn)
BASO (female athymic nude mouse, blood; i.p., 60 mg/kg twice daily, 14 days, group mean): 0.175%

O=C(O)CCCOc1ccc([18F])cc1-c1cc(-c2ccccc2C(F)(F)F)n(-c2ccccc2)n1
radioactivity uptake (gamma counting; male ddY mice, kidney; intravenous, 2.1 MBq, 15 min): 3.12 ± 0.4 SUV

O=C(N[C@H](Cc1c[nH]c2ccccc12)C(=O)Nc1ccncc1)c1ccc(-c2ccc(F)c(Cl)c2)cc1F
concentration (Swiss Webster mouse, female, liver; oral, 50 mg/kg, 8 h, 20% HPβCD vehicle): 38.2 µM

Cc1cc(-c2nccc3c2ccn3CC(=O)Nc2ccc(-c3cnccn3)cn2)ccn1
subjects with limb injury (human; 5 mg once daily, multiple ascending dose): 0%

CNC(=O)c1cc(Oc2ccc(NC(=O)Nc3ccc(Cl)c(C(F)(F)F)c3)c(F)c2)ccn1
autosampler stability (reconstituted mouse plasma extract; up to 24 h, 4 °C; reference: initial concentration): < 15%

NS(=O)(=O)c1cc(C(=O)O)c(NCc2ccco2)cc1Cl
subjects with adverse event (refers to: diarrhoea; healthy men; oral, 8 days, treatment-emergent, crossover trial): 0%

CN(C(=O)n1cnc(-c2cccnc2)c1)[C@H]1CC[C@H](O)CC1
tissue concentration (rat, cortex; oral, 10 mg/kg single dose, 1 h): 15.8 ± 0.7 ng/g

C[C@H]1Oc2cc(cnc2N)-c2c(nn(C)c2C#N)CN(C)C(=O)c2ccc(F)cc21
free plasma concentration (mouse, plasma; oral, 10 mg/kg, 1 h, 1 doses): 2.18 µM

O=C1NCCc2nc(OCc3cccc(F)c3)ccc21
Irwin test score (refers to: Miosis; Sprague-Dawley rat male; oral, 100 mg/kg, 4 h; direction not given): 0

Cl.[2H]C([2H])([2H])CC(=O)c1cnc(NC(=O)C2CC2)cc1Nc1cccc(-c2ncn(C([2H])([2H])[2H])n2)c1OC
Vz/F (geometric mean; human; oral, 40 mg twice daily, day 1, fed, liquid, multiple dose): 108 L

COc1cccc(OC)c1-c1cc(C(=O)NC2(C(=O)O)C3CC4CC(C3)CC2C4)nn1-c1ccc(C(=O)N(C)CCCN(C)CCCN(C)C(=O)CN2CCN(CC(=O)[O-])CCN(CC(=O)[O-])CCN(CC(=O)[O-])CC2)cc1C(C)C.[177Lu+3] (stereo not drawn)
tissue uptake (mouse, HT-29 xenograft, kidney; 24 h post injection): 0.81 %ID/g

C=CC(=O)Nc1cc(Nc2nccc(-c3cn(C)c4ccccc34)n2)c(OC)cc1N(C)CCN(C)C
recovery (storage stability; human plasma; 24 h, on ice, medium QC level): 87.4%

Cc1ccc(Sc2ccccc2N2CCNCC2)c(C)c1
participants with TEAE (refers to: ureteric calculus; healthy adult women; oral, 10 mg daily, 12 days): 0%

COc1cc([C@H]2OC[C@H]3[C@@H]2CO[C@@H]3c2ccc(O[C@@H]3O[C@H](CO)[C@@H](O)[C@H](O)[C@H]3O)c(OC)c2)ccc1O[C@@H]1O[C@H](CO)[C@@H](O)[C@H](O)[C@H]1O
accuracy (post-procedure stability; rat plasma; 8 ng/mL, 1 h, room temperature): 88.9%

CC(C(=O)NCC(=O)NCC(CNC(=O)CNC(=O)C(C)N1CCN(CC(=O)[O-])CCN(CC(=O)[O-])CCN(CC(=O)[O-])CC1)(CNC(=O)CNC(=O)C(C)N1CCN(CC(=O)[O-])CCN(CC(=O)[O-])CCN(CC(=O)[O-])CC1)CNC(=O)CNC(=O)C(C)N1CCN(CC(=O)[O-])CCN(CC(=O)[O-])CCN(CC(=O)[O-])CC1)N1CCN(CC(=O)[O-])CCN(CC(=O)[O-])CCN(CC(=O)[O-])CC1.[Gd+3].[Gd+3].[Gd+3].[Gd+3] (stereo not drawn)
Gd concentration ratio (cynomolgus monkey; day 5; reference: skin over brain): ~10 fold

CCN1/C(=C/C(C)=O)Sc2ccc(F)cc21
mean blood pressure change (cynomolgus monkey; oral, 30 mg/kg, 4 h post-dose; reference: pre-dose): 99.5 ± 4.2%

C=CC(=O)Nc1cccc(-n2nc3c(=O)[nH]nc(N)c3c2-c2oc3ccc(C)cc3c2C)c1
remaining compound (BALB/c nude mouse, whole blood; 1 µM, 0.5 h, 37 °C): 78.4%

O=C(c1nc2n(n1)[C@H](c1ccccc1)C[C@@H]2F)C1CC1
renal clearance (human; 5 mg single dose, mean): 0.15 mL/min

O=C(c1cccnc1-c1ccncc1)N1CCC(O)(Cc2ccccc2)CC1
Cmax/dose (healthy Japanese adults, plasma; oral, 200 mg twice daily, day 14): 4.9 ng/mL/mg

NC1(C(=O)N[C@@H](CCO)c2ccc(Cl)cc2)CCN(c2nc[nH]c3nccc2-3)CC1
incidence of Dysuria (metastatic CRPC patients; dose not given, any grade, treatment-related, all doses, added: enzalutamide 160 mg daily): 6.7%

c1ccc2cc3ccccc3cc2c1
literature range of log K (polyethylene-water partitioning; PAH compilation): 4.15 to 4.76 log units

OC[C@H]1O[C@@H](O[C@H]2[C@H](O)[C@@H](O)[C@H](O)O[C@@H]2CO)[C@H](O)[C@@H](O)[C@H]1O
log2 fold change (binding, MIDAS equilibrium dialysis LC-MS; A2AR-BRIL thermostabilized; concentration not given; reference: no-protein control): -0.0706

CNc1ccc(-c2nc3ccc(O)cc3s2)cc1 [carbon-11 labelled]
SUV (microPET/CT imaging; B6SJL mouse, normal, brain; intravenous, 5 min): 0.743 ± 0.211

CCN1CCN(Cc2ccc(Nc3ncc(F)c(-c4cc(F)c5nc(C)n(C(C)C)c5c4)n3)nc2)CC1
Vss/F (healthy human, fasted; oral, 150 mg, 3 x 50 mg tablets): 1720 L

OC[C@H]1O[C@@H](c2ccc(Cl)c(Cc3ccc(O[C@H]4CCOC4)cc3)c2)[C@H](O)[C@@H](O)[C@@H]1O
change in Bicarbonate (Japanese type 1 diabetes patients, blood; 25 mg, day 28; reference: baseline): -1 mEq/L

CNC(=O)c1ccc(-c2cnc3ncc(Cc4ccc5ncccc5c4)n3n2)cc1F
patients with adverse event (refers to: Diarrhea, all grades; hepatocellular carcinoma patients; oral, 600 mg twice daily, expansion cohort, any causality): 36%

CNCCOC12CC3(C)CC(C)(CC(Cn4ncc(-c5ccc(N6CCc7cccc(C(=O)Nc8nc9ccccc9s8)c7C6)nc5C(=O)O)c4C)(C3)C1)C2
mean arterial pressure change (beagle dog, male, anaesthetised; intravenous bolus, 0.03 mg/kg, 180 min; reference: baseline): -22%

CC(=O)O[C@H]1C(=O)[C@@]2(C)[C@H]([C@H](OC(=O)c3ccccc3)[C@]3(O)C[C@H](OC(=O)[C@H](O)[C@@H](NC(=O)c4ccccc4)c4ccccc4)C(C)=C1C3(C)C)[C@]1(OC(C)=O)CO[C@@H]1C[C@@H]2O
adverse event incidence (refers to: Nausea; patients with advanced solid tumours; intravenous, dose not given, grade 1 and 2, possibly related to drug): 28%

O=C(O)CCC(=O)O.[2H]C([2H])([2H])Oc1cc(C)c2[nH]ccc2c1CN1CC[C@@H](C2CC2)C[C@H]1c1ccc(C(=O)O)cc1
subjects with papular urticaria TEAE (multiple ascending dose; healthy Chinese subjects; 125 mg twice daily): 0%

CCN1CCN(Cc2ccc(NC(=O)c3ccc(C)c(NC(=O)c4cncc(-c5cccs5)c4)c3)cc2C(F)(F)F)CC1
mean plasma concentration (LC-MS/MS; C57BL/6 mouse, plasma; intraperitoneal, 30 mg/kg single dose, 4 h): 349 ng/mL

O=C(O)C[C@H](Nc1ncnc2c1ncn2[C@@H]1O[C@H](COP(=O)(O)O)[C@@H](O)[C@H]1O)C(=O)O
log2 fold change (binding, MIDAS equilibrium dialysis LC-MS; A2AR-BRIL thermostabilized; concentration not given; reference: no-protein control): -0.263

COc1ccc2c(=O)n(C)c(-c3ccccc3)nc2c1
tissue concentration (male Sprague-Dawley rat, bladder; oral, 30 mg/kg, 4 h): 272 ng/g

CCn1cc(C(=O)N2CCOCC2)c(=O)c2cc(NC3Cc4ccccc4C3)cnc21
AUC(0-inf) (human, fasted; oral suspension, 150 mg single dose, arithmetic mean): 1950 ng·h/mL

Cc1c(-c2ccc(N3CCc4cccc(C(=O)Nc5nc6ccccc6s5)c4C3)nc2C(=O)O)cnn1CC12CC3(C)CC(C)(C1)CC(OCCNCC[C@H](O)CO)(C3)C2
dP/dt at 50 change (beagle dog, male, anaesthetised; intravenous infusion, 0.3 mg/kg/min, 30 min; reference: vehicle): -16%

CN[C@@H]1COc2c(S(=O)(=O)NC(=O)Nc3c4c(cc5c3CCC5)CCC4)cnn2C1
renal clearance (human, urine; oral, 150 mg, 0-48 h): 7.32 mL/min

CC(C)(C(=O)N1CCOc2c(C#N)cncc2C1)C(F)F
subjects with headache TEAE (human, both sexes; oral, 10 mg single dose): 0%

CCCC(CCC)C(=O)Oc1cccc(C(O)CCN)c1.O=CO (stereo not drawn)
ERG, scotopic, rod b-wave (Abca4-/-Rdh8-/- mice, photic damage; oral, 20 mg/kg, 7 days, flash intensity 0.01): 82.7 µV and 93.5 µV and 65.6 µV and 85.6 µV and 58.2 µV and 70.9 µV

N#Cc1ccc2c(c1)[C@H]1CCCN(C(=O)c3ccc4[nH]cnc4c3)[C@H]1C2
minimum ACTH level (human; 360 mg, end of trial): 1.7 pmol/L

COCc1cc(C(=O)Nc2cc([C@H]3CC[C@@H](OC(=O)NC(C)C)C3)[nH]n2)n(C)n1
AUC(0-24h) (OVCAR-3 xenograft, NOD/SCID gamma mice, plasma; oral, 125 twice daily, PK/PD study): 17.6 µM·h

CCc1cc(C(=O)NC)c2nccc(N3CCc4c(cc(Cn5ccnc5)cc4-c4cn(C)nc4C(F)(F)F)C3=O)c2c1
serum cholesterol change (Sprague Dawley rats; oral, 50 mg/kg once daily, 7 days; reference: vehicle): -0.9%

CO[C@H]1C[C@@H]2CC[C@@H](C)[C@@](O)(O2)C(=O)C(=O)N2CCCC[C@H]2C(=O)O[C@H]([C@H](C)C[C@@H]2CC[C@@H](OC(=O)NCCOCCOCCOCCOCCOCCOCCOCCOCCC(=O)N3CCc4cc(Cn5nc(-c6ccc7oc(N)nc7c6)c6c(N)ncnc65)ccc4C3)[C@H](OC)C2)C[C@@H](O)[C@H](C)/C=C(\C)[C@@H](O)[C@@H](OC)C(=O)[C@H](C)C[C@H](C)/C=C/C=C/C=C/1C
Cmax (human patients, plasma; intravenous, 1.6 mg, cycle 1 day 15, weekly dosing): 62.8 ng/mL

C/C(O)=C(\C#N)C(=O)Nc1ccc(C(F)(F)F)cc1
free plasma concentration (CD-1 mice female, plasma; oral, 30 mg/kg leflunomide daily, 24 h): 251 ± 130 µM

C=C[C@@](C)(/C=C/c1ccc(O)cc1)CCC=C(C)C
accuracy (three freeze-thaw cycles; rat plasma; 1000 ng/mL, -70 °C freeze): 89.6%

Cc1nc2cccc(OCC(C)(C)C(=O)NC(C)C)c2c(N)c1C(=O)O
micronucleated polychromatic erythrocytes (male Swiss albino CD-1 mouse, bone marrow; oral, 500 mg/kg, 36 h): 0.05%

COc1cc2c3c(n(CCCN4CCOCC4)c(=O)c2cc1OC)-c1cc2c(cc1C3=O)OCO2
t1/2 (beagle dog, female, plasma; intravenous infusion, 50 mg/m^2, 1 h infusion, vehicle 2): 7.9 ± 2.2 h

For quick reference, copied from above:
CNc1ccc(-c2nc3ccc(O)cc3s2)cc1 [carbon-11 labelled]
SUV (microPET/CT imaging; B6SJL mouse, normal, brain; intravenous, 5 min): 0.743 ± 0.211

CO[C@H]1C[C@@H]2CC[C@@H](C)[C@@](O)(O2)C(=O)C(=O)N2CCCC[C@H]2C(=O)O[C@H]([C@H](C)C[C@@H]2CC[C@@H](OC(=O)NCCOCCOCCOCCOCCOCCOCCOCCOCCC(=O)N3CCc4cc(Cn5nc(-c6ccc7oc(N)nc7c6)c6c(N)ncnc65)ccc4C3)[C@H](OC)C2)C[C@@H](O)[C@H](C)/C=C(\C)[C@@H](O)[C@@H](OC)C(=O)[C@H](C)C[C@H](C)/C=C/C=C/C=C/1C
Cmax (human patients, plasma; intravenous, 1.6 mg, cycle 1 day 15, weekly dosing): 62.8 ng/mL

O=C(c1nc2n(n1)[C@H](c1ccccc1)C[C@@H]2F)C1CC1
renal clearance (human; 5 mg single dose, mean): 0.15 mL/min

Cl.[2H]C([2H])([2H])CC(=O)c1cnc(NC(=O)C2CC2)cc1Nc1cccc(-c2ncn(C([2H])([2H])[2H])n2)c1OC
Vz/F (geometric mean; human; oral, 40 mg twice daily, day 1, fed, liquid, multiple dose): 108 L

CNCCOC12CC3(C)CC(C)(CC(Cn4ncc(-c5ccc(N6CCc7cccc(C(=O)Nc8nc9ccccc9s8)c7C6)nc5C(=O)O)c4C)(C3)C1)C2
mean arterial pressure change (beagle dog, male, anaesthetised; intravenous bolus, 0.03 mg/kg, 180 min; reference: baseline): -22%

c1ccc2cc3ccccc3cc2c1
literature range of log K (polyethylene-water partitioning; PAH compilation): 4.15 to 4.76 log units

CCn1cc(C(=O)N2CCOCC2)c(=O)c2cc(NC3Cc4ccccc4C3)cnc21
AUC(0-inf) (human, fasted; oral suspension, 150 mg single dose, arithmetic mean): 1950 ng·h/mL
